Assay results pooled from the literature.
Parts stem from different laboratories: compare values within a part only. Positions count from the first letter of the parent shown.

Sample 1
Target: Sal-like protein 4, full length isoform A (SALL4, Homo sapiens, UniProt Q9UJQ4, residues 1-1053)
Chain of UniProt Q9UJQ4 (whole entry, looked up): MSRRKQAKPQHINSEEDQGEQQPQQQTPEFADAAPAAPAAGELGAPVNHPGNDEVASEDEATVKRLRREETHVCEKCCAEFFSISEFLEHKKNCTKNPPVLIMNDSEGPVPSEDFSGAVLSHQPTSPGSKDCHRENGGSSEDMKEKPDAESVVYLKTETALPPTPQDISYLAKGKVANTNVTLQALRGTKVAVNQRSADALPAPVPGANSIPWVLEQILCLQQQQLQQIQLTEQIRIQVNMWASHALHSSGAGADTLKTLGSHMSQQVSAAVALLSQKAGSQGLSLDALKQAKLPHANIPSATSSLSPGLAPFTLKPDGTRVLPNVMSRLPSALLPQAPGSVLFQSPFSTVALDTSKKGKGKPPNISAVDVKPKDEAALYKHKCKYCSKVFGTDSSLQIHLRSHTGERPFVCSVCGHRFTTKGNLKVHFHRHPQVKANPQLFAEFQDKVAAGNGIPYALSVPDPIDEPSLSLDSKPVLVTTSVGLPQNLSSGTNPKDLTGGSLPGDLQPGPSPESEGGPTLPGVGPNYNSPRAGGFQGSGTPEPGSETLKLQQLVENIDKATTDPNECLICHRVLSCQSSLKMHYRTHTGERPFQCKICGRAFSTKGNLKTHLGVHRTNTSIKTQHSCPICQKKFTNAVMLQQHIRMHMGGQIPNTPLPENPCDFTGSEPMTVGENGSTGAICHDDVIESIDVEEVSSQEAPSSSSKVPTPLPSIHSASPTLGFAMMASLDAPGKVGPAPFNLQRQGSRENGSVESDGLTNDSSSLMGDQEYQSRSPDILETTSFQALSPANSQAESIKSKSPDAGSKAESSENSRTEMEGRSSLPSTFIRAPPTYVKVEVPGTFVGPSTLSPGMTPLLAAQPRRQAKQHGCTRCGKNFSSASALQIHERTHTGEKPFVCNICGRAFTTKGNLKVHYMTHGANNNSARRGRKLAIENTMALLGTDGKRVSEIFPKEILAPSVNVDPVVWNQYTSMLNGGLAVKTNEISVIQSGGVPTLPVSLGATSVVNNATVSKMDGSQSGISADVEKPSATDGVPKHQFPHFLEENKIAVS
Technique: universal PBM
Form: double-stranded DNA, one strand shown
Medium: in vitro
Tested at: 600 nM
Setting: 8-mer, flanks averaged, mean of replicates
Direction: higher = stronger binding
Endpoint: E-score
Sequence = GTGTGTAA; result = 0.118
Sequence = CCGGGCCC; result = -0.308
Sequence = AGGCGGAC; result = -0.243
Sequence = CCGATTAA; result = 0.153
Sequence = TATTGGGA; result = 0.279
Sequence = AAGCGAGC; result = -0.113
Sequence = CCCGCCCG; result = -0.32
Sequence = ATGGGTCA; result = -0.0482
Sequence = CTCTCACC; result = -0.177
Sequence = GGAAGGGA; result = -0.193
Sequence = GAAATCTA; result = 0.211
Sequence = CCTTTCCC; result = -0.0593
Sequence = CCCCACAG; result = -0.286
Sequence = CACGTCTC; result = -0.196
Sequence = AACGCTAG; result = -0.099
Sequence = AAAGACAT; result = 0.0863
Sequence = CTAACCCA; result = -0.0955
Sequence = ACACACTA; result = 0.0686
Sequence = GGTGCAAC; result = -0.31
Sequence = AAAGTGTC; result = 9e-05
Sequence = CGAATCAG; result = -0.0772
Sequence = AGCCTTAG; result = -0.0807
Sequence = CACAGGAA; result = 0.0667
Sequence = GCTTAGCC; result = -0.275

Sample 2
Target: Histone acetyltransferase KAT6A, winged helix 2, GST fusion (KAT6A, Homo sapiens, UniProt Q92794, residues 85-181)
Technique: protein binding microarray
Form: double-stranded DNA, one strand shown
Medium: in vitro
Tested at: not given
Setting: 8-mer, flanks averaged, mean of 2 arrays, mostly near background
Reference: not given
Direction: higher = stronger binding
Endpoint: E-score
Construct (chain): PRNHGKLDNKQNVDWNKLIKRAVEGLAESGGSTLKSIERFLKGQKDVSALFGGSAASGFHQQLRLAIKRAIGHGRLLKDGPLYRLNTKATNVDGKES
Sequence = CCTCCATC; result = 0.0111
Sequence = ACCAAAGC; result = 0.137
Sequence = AGCTTACC; result = -0.0709
Sequence = CCTAGCAG; result = -0.0475
Sequence = AGGGCGAC; result = 0.0737
Sequence = AGTTCATG; result = 0.108
Sequence = AACCAGAG; result = -0.055
Sequence = ATGTGGTC; result = -0.0111
Sequence = GAATATTA; result = 0.0525
Sequence = CAAGAGTG; result = -0.219
Sequence = CTAGCATC; result = 0.0286
Sequence = CCGCCGCC; result = 0.0863
Sequence = AGTTTCCG; result = 0.139
Sequence = GGAATATA; result = 0.0211
Sequence = AGTCGTAT; result = -0.123
Sequence = AATAAAGT; result = 0.0181
Sequence = AGTGTCCA; result = 0.099
Sequence = ACGTGGGA; result = -0.144
Sequence = CCCGAGAC; result = 0.123
Sequence = CCTTGCCC; result = 0.288
Sequence = CAGCAGGC; result = 0.218
Sequence = CGACTTTA; result = -0.0396
Sequence = GAGATGAC; result = -0.206
Sequence = AAGCTTGC; result = 0.0716
Sequence = GAGAAAGA; result = 0.0396

Sample 3
Target: POU domain, class 5, transcription factor 1, POU domain (Pou5f1, Mus musculus, UniProt P20263, residues 131-289)
Chain of UniProt P20263 (131-289, looked up): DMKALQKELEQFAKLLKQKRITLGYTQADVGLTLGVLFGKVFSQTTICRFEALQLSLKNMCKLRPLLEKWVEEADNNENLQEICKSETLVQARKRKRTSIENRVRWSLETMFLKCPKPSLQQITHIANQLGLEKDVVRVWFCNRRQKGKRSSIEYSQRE
Technique: Spec-seq
Form: double-stranded DNA, one strand shown
Medium: in vitro
Tested at: not given
Setting: whole probe, mean of replicates
Reference: not given
Direction: lower = stronger binding
Endpoint: relative binding energy
Constant ends, left off below: GAGTCGTCTCGTCAGCAC … TCCGTAGAGCACTCAGGTC
Sequence = ATGCCTT; result = 0.484 ln ratio
Sequence = CCGTTAA; result = 0.637 ln ratio
Sequence = AACATAA; result = 0.121 ln ratio
Sequence = ATTCAAA; result = -0.793 ln ratio
Sequence = CACCTAA; result = 0.825 ln ratio
Sequence = ATCGAAA; result = 0.436 ln ratio
Sequence = GACTTAA; result = 0.391 ln ratio
Sequence = ATGCTGC; result = 0.656 ln ratio
Sequence = CCCCTAA; result = 0.796 ln ratio
Sequence = TTGGTAA; result = -0.334 ln ratio

Sample 4
Target: CCNB2, cyclin fold, Cln2 fusion (human)
Technique: yeast growth competition, sequencing
Medium: yeast
Setting: weak parent motif
Reference: not given
Direction: higher = stronger binding
Endpoint: normalised enrichment score
Starting sequence: PKN2 docking peptide (human); VSAVQKLDFSDTM; partner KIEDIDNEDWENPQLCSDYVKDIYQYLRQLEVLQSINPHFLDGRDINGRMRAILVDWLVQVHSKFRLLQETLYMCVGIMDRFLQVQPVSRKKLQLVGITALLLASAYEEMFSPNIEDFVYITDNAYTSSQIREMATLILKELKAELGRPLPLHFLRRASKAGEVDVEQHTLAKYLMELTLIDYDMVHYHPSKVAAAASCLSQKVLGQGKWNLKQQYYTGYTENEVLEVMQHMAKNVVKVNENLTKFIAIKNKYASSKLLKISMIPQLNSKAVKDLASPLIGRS
Change = V1E; result = 0.078
Change = S2L; result = -0.0264
Change = F9D; result = -0.244
Change = S2G; result = -0.181
Change = M13W; result = 0.33
Change = S10T; result = -0.0294
Change = V4Y; result = -0.212
Change = S10P; result = -0.0376
Change = V1Y; result = 0.363
Change = D11F; result = -0.365
Change = T12Y; result = 0.255
Change = F9H; result = -0.395
Change = M13A; result = -0.181
Change = D8C; result = -0.00761
Change = A3T; result = -0.0352
Change = V1A; result = 0.282
Change = D8H; result = -0.224
Change = F9N; result = 0.215
Change = T12K; result = -0.263
Change = D11H; result = -0.277
Change = A3C; result = 1.1
Change = L7I; result = -0.532
Change = D11G; result = 0.116
Change = S10Y; result = -0.075
Change = T12G; result = 0.518

Sample 5
Target: ABI1, truncated, D143A, DHFR fusion (Arabidopsis thaliana)
Technique: DHFR PCA, deep sequencing
Medium: yeast
Setting: methotrexate growth selection, single substitutions
Together with: (+)-ABA 0 µM
Reference: wild-type fitted maximum
Direction: higher = stronger binding
Endpoint: relative binding score
Starting sequence: PYL1, truncated, DHFR fusion (Arabidopsis thaliana); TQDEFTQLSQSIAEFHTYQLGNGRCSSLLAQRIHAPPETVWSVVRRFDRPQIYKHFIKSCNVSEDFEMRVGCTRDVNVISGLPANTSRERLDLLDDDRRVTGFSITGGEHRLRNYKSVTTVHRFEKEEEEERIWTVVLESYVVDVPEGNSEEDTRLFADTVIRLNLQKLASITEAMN; partner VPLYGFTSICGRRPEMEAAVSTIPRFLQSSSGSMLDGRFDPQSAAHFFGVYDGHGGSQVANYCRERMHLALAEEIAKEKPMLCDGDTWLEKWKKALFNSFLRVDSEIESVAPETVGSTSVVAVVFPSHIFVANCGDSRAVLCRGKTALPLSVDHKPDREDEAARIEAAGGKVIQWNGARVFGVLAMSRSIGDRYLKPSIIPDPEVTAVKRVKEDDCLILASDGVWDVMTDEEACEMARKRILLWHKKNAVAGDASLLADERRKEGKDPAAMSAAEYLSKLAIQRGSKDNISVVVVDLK
Change = E67H; result = 10.9%
Change = T86M; result = 19%
Change = Q167C; result = -1.51%
Change = G71H; result = 0.921%
Change = G23Q; result = 6.82%
Change = K54C; result = -3.01%
Change = I33C; result = 0.0691%
Change = T73M; result = 34.7%
Change = T160I; result = -2.48%
Change = F5Q; result = 8.71%
Change = R111S; result = 5.22%
Change = E174H; result = 0.385%
Change = F15W; result = 27.9%
Change = A84W; result = 91.2%
Change = L29C; result = 4.25%
Change = T173A; result = 24.4%
Change = E152W; result = 0.0061%
Change = A30R; result = 3.51%
Change = L164M; result = 21%

Sample 6
Target: Ras GTPase-activating protein-binding protein 1, RRM domain (G3BP1, Homo sapiens, UniProt Q13283)
Chain of UniProt Q13283 (whole entry, looked up): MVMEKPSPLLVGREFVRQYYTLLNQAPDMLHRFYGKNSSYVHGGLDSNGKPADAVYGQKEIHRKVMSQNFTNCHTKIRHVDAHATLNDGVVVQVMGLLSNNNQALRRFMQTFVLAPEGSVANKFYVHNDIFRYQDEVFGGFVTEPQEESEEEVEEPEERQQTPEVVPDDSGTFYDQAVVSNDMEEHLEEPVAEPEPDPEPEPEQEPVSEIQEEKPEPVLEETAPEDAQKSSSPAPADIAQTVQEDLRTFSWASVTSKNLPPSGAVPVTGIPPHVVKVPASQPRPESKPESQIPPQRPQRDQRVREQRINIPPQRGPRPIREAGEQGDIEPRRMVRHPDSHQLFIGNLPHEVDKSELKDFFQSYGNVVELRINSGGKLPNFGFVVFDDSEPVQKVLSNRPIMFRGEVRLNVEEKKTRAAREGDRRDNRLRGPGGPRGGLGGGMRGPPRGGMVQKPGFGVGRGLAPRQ
Technique: RNA Bind-n-Seq
Form: RNA
Medium: in vitro
Tested at: 1 µM
Setting: whole 134-nt RNA, ends assumed
Together with: 150 mM KCl
Reference: input library
Direction: higher = stronger binding
Endpoint: log2 enrichment
Constant ends, left off below: GGGAGUUCUACAGUCCGACGAUC … UGGAAUUCUCGGGUGUCAAGG
Sequence = UAACUUUAGAGGAGGGUCUGAUGGAUAUGGCAGUGGACGUGGAUUUGGGGAUGGCUAUAAUGGGUAUGGAGGAGGACCUGGAGGUGGCAA; result = -0.658
Sequence = GUCCUGUGCUACACAUCGUAUGUACCGAAUCGGGGAAAGGGGAAAAAAAGGGGAGGGGAAAGUAUUAUGUUACGCCGUUCGGAUCUGCAC; result = 0.905
Sequence = ACCAUGCAGGUGGGCAUCUUUGGGAAGUGGGGCAAGGGGGGGAUAGGGAGGGGGGUAAAAAUUUGGGAACAGGUGGUCCCAGGUCGUUUC; result = -0.39
Sequence = CUCAAGUCCUGUGCUACACAUCGUAUGUACCGAAUCGGGGAAGGAAGGAAGGGGAAAGUAUUAUGUUACGCCGUUCGGAUCUGCACUUCC; result = -0.282
Sequence = UAACUUUAGAGGAGGAUCUGAUGGAUAUGGCAGUGGACGUGGAUUUGGGGAUGGCUAUAAUGGUUAUGGAGGAGGACCUGGAGGUGGCAA; result = -0.373
Sequence = CUCAAGUCCUGUGCUACACAUCGUAUGUACCGAAUCGGAAGGAAGGGGAAGGGGAAAGUAUUAUGUUACGCCGUUCGGAUCUGCACUUCC; result = -0.199
Sequence = GCAGGAAGUAAAAACAAAUGGAAAUGCUUCGGAUAGUGGCAGGGGUGGGGGUUGCUAAGGAAAAGGUGGGAUGGGAGUGGGUAAAGAGUU; result = 1.06
Sequence = UGGGAGGUGGAUUUUGUUUAUUUUUUUAGCUCAUUUCCAGGGGUGGGAAUUUUUUUUUAAUAUGUGUCAUGAAUAAAGUCGUUUUUGAAA; result = 1.54
Sequence = ACCAUGCAGGUGGGCAUCUUUGGGAAGUGGAGCAAGGGGGGGAUAGGGAGGGGGGUAACACUUUGGGAACAGGUGGUCCCAGGUCGUUUC; result = -0.543
Sequence = CAAGUCCUGUGCUACACAUCGUAUGUACCGAAUCGGGCCCGGGCCCGGGCCCGGGGAAAGUAUUAUGUUACGCCGUUCGGAUCUGCACUU; result = -0.736
Sequence = UUCCCACAGCCCAAAAAUCUUCUCAACAGUGUGAUUGGAAGAGCCCUCGGCAUCUCACAUGCAAAAGACAAACUAGUCUACGUGCACACA; result = -0.019
Sequence = CCUCAAGUCCUGUGCUACACAUCGUAUGUACCGAAUCGGUGGGGUGGGUGGGAAAGUAUUAUGUUACGCCGUUCGGAUCUGCACUUCCAG; result = 0.324
Sequence = GUCCUGUGCUACACAUCGUAUGUACCGAAUCGGGGAAAAAGGGGAAAAAGGAAAAAGGGAAAGUAUUAUGUUACGCCGUUCGGAUCUGCA; result = -0.146
Sequence = UGGGAGGUGGAUUUUGUUUAUUUUUUUAGCUCAUUUCCAGAGGUGGGAAUUUUUUUUUAAUAUGUGUCAUGAAUAAAGUUGUUUUUGAAA; result = 1.43

Further values, each from its own experiment
Molecule = TIMM8B (Homo sapiens, UniProt Q9Y5J9); target or system = TIMM13 (Homo sapiens, UniProt Q9Y5L4); assay = cross-linking MS; system = cell fractions; conditions = together with: DMTMM; endpoint = cross-linked residues; result = E53 to K53
Molecule = PhoQ, residues 284 288 289 292 302 303 SIHMAM; target or system = PhoP, residues 12 14 15 18 19 NYFTV (Escherichia coli, UniProt P23836); assay = Sort-seq, refers to: YFP reporter; system = E. coli; conditions = PhoQ-PhoP variant library, together with: 10 µM Mg2+; how to read = reference: high Mg2+ state, higher = stronger signaling; endpoint = fold induction; result = 4.95
Molecule = ALG11 (Homo sapiens, UniProt Q2TAA5); target or system = ACTRT2 (Homo sapiens, UniProt Q8TDY3); assay = cross-linking MS; system = cell fractions; conditions = together with: DMTMM; endpoint = cross-linked residues; result = M1 to E226
Molecule = UBE2O (Homo sapiens, UniProt Q9C0C9); target or system = PSAT1 (Homo sapiens, UniProt Q9Y617); assay = cross-linking MS; conditions = hits only; endpoint = interaction screen; result = cross-linked
Molecule = HNRNPA2B1 (Homo sapiens, UniProt P22626); target or system = RBMX (Homo sapiens, UniProt P38159); assay = cross-linking MS; conditions = hits only; endpoint = interaction screen; result = cross-linked

A few entries again (sample 5):
Change = G71H; result = 0.921%
Change = A84W; result = 91.2%
Change = T73M; result = 34.7%
Change = T173A; result = 24.4%
Change = I33C; result = 0.0691%
Change = L164M; result = 21%
Change = E67H; result = 10.9%
Change = F15W; result = 27.9%
Change = F5Q; result = 8.71%
Change = K54C; result = -3.01%
